Earlier results as cited in several papers.
Lines come from different studies, so protocols differ. ± marks the error that the study gave. Values after ≈ are worked out from the molar mass of the structure shown.
BCHE: Cholinesterase (BCHE, Homo sapiens, UniProt P06276)

Compound | tested on | observed | mode | added | quantity | result
OC[C@@]12C[C@@H]1[C@@H](n1cnc3c(N[C@@H](C4CCC4)C4CC4)nc(Cl)nc31)[C@H](O)[C@@H]2O | ADORA2A (Homo sapiens, UniProt P29274) | binding | – | [3H]CGS21680 | Ki | 3940 ± 876 nM
COCCC(=O)N[C@H]1CC[C@H](CCN2CCN(c3cccc(Cl)c3Cl)CC2)CC1 | dopamine D3 receptor | – | – | – | Ki | 0.14 nM
CC[C@H](C)[C@H](NC(=O)CNC(=O)[C@H](CCC(N)=O)NC(=O)[C@@H](NC(=O)[C@H](C)NC(=O)[C@H](CCC(N)=O)NC(=O)[C@H](C)NC(=O)[C@@H](NC(=O)[C@H](C)NC(=O)[C@H](CCCNC(=N)N)NC(=O)[C@H](Cc1ccccc1)NC(=O)[C@H](C)NC(=O)[C@H](CC(N)=O)NC(=O)[C@H](CCCCN)NC(=O)CNC(=O)[C@H](C)NC(=O)[C@H](CCCCN)NC(=O)[C@H](CCC(=O)O)NC(=O)[C@@H](NC(=O)[C@H](CCCCN)NC(=O)[C@H](CCCCN)NC(=O)CN)[C@@H](C)CC)C(C)C)C(C)C)C(=O)NCC(=O)N[C@@H](Cc1ccccc1)C(=O)N[C@@H](C)C(=O)N[C@@H](CCCNC(=N)N)C(=O)N[C@@H](C)C(=O)N[C@@H](CC(C)C)C(=O)NCC(=O)N[C@H](C(=O)N[C@@H](C)C(=O)N[C@H](C(=O)N[C@@H](CC(=O)O)C(=O)O)C(C)C)[C@@H](C)CC | Pseudomonas aeruginosa | – | – | – | MIC | 4 µM (≈ 13.4 µg/mL)
COc1cc2c(cc1O)C(CCc1ccc(Cl)cc1)N(C)CC2 (centres unmarked) | Glutamate NMDA receptor; Grin1/Grin2b (Grin1/Grin2b, Rattus norvegicus, UniProt P35439+Q00960) | binding | – | – | Ki | 20 ± 3 nM
CC[C@H](C)[C@H](NC(=O)CNC(=O)[C@@H](NC(=O)CNC(=O)[C@@H](NC(=O)CNC(=O)[C@@H](NC(=O)[C@@H](NC(=O)[C@H](CCC(N)=O)NC(=O)[C@H](CCC(=O)O)NC(=O)[C@@H](NC(=O)[C@H](CC(C)C)NC(=O)[C@H](CCCNC(=N)N)NC(=O)[C@H](Cc1ccccc1)NC(=O)[C@@H](NC(=O)[C@H](CC(N)=O)NC(=O)[C@H](CCCCN)NC(=O)CNC(=O)[C@H](CCSC)NC(=O)[C@H](CCCCN)NC(=O)CNC(=O)[C@H](CC(C)C)NC(=O)[C@H](CCCCN)NC(=O)[C@H](CCCCN)NC(=O)CNC(=O)[C@H](Cc1ccccc1)NC(=O)[C@H](CCCCN)NC(=O)[C@H](CCCCN)NC(=O)[C@H](CC(C)C)NC(=O)[C@H](Cc1c[nH]c2ccccc12)NC(=O)CN)C(C)C)C(C)C)C(C)C)C(C)C)C(C)C)C(C)C)C(=O)N[C@@H](CC(N)=O)C(=O)N[C@@H](C)C(=O)N[C@@H](CC(C)C)C(=O)N[C@@H](CO)C(=O)O | Staphylococcus aureus | – | – | – | MIC | 128 µM (≈ 481 µg/mL)
COC(=O)C1C(c2ccc(Cl)c(Cl)c2)CC2CCC1[S+]2[O-] (centres unmarked) | dopamine transporter | binding | – | – | Ki | 5.3 nM
C[C@@H]1CN([C@@H](c2cccc(O)c2)c2cccc(C(=O)N(C)c3cccc(F)c3)c2)[C@@H](C)CN1Cc1ccccc1 | rat kappa opioid receptor | binding | – | – | Ki | 21.8 nM
CSCC[C@@H]1NC(=O)[C@H](CC(C)C)NC(=O)[C@H]([C@@H](C)O)NC(=O)[C@@H]2CSSC[C@@H]3NC(=O)[C@H]([C@@H](C)O)NC(=O)[C@H](CC(N)=O)NC(=O)[C@H](CSSC[C@@H](C(=O)N[C@@H](CC(=O)O)C(=O)N[C@@H](CCC(N)=O)C(=O)O)NC(=O)[C@H](CC(C)C)NC1=O)NC(=O)[C@H](CCCCN)NC(=O)[C@H](CC(=O)O)NC(=O)[C@H](CCCCN)NC(=O)[C@H](Cc1ccccc1)NC(=O)[C@H]([C@@H](C)O)NC(=O)[C@H]([C@@H](C)O)NC(=O)CNC(=O)[C@@H]1CCCN1C(=O)[C@H](CCC(=O)O)NC(=O)[C@@H](NC(=O)[C@@H](NC(=O)[C@@H](NC(=O)[C@H](CCC(=O)O)NC(=O)[C@H](CO)NC(=O)CN)C(C)C)[C@@H](C)O)CSSC[C@H](NC(=O)[C@H](CCCNC(=N)N)NC3=O)C(=O)NCC(=O)N[C@@H](CO)C(=O)N[C@@H](CC(=O)O)C(=O)NCC(=O)N[C@@H](CCCCN)C(=O)N[C@@H](CO)C(=O)N[C@@H](C)C(=O)N[C@@H](C)C(=O)N2 | Chymotrypsin-C (Homo sapiens, UniProt Q99895) | – | – | – | Ki | 0.04 nM
O=C(Cc1ccccc1Cl)Cn1cc(COC2=CC(=O)c3ccccc3C2=O)nn1 | BCHE | – | inhibitor | – | Ki | 8.04 nM
CC(C)[C@H](Nc1nc(Cl)nc2c1ncn2[C@H]1[C@H](O)[C@H](O)[C@]2(CO)C[C@H]12)C1CC1 | HTR2C (Homo sapiens, UniProt P28335) | binding | – | [3H]mesulergine | Ki | 672 nM
O=C(Cn1cc(COc2ccc3ccc(=O)oc3c2)nn1)Nc1ccc(F)cc1 | BCHE | – | – | – | Ki | 33.1 nM
CC(=O)OC1C(=O)C2(C)C(O)CC3OCC3(OC(C)=O)C2C(OC(=O)c2cccc(OC(F)(F)F)c2)C2(O)CC(OC(=O)C(O)C(C=C(C)C)NC(=O)OC(C)(C)C)C(C)=C1C2(C)C (centres unmarked) | HCT-116 | cytotoxicity | – | – | IC50 | 1.8 nM
O=C(Cn1cc(COc2ccc3ccc(=O)oc3c2)nn1)Nc1ccccc1Cl | BCHE | enzyme activity | inhibitor | – | Ki | 33.1 nM
C=CCN1C[C@H](C)N([C@@H](c2ccccc2)c2ccc(C(=O)N(CC)CC)cc2)C[C@H]1C | mu opioid receptor rat | – | – | – | Ki | 3000 nM

Excerpt of the above:
Compound | tested on | observed | mode | added | quantity | result
CC[C@H](C)[C@H](NC(=O)CNC(=O)[C@H](CCC(N)=O)NC(=O)[C@@H](NC(=O)[C@H](C)NC(=O)[C@H](CCC(N)=O)NC(=O)[C@H](C)NC(=O)[C@@H](NC(=O)[C@H](C)NC(=O)[C@H](CCCNC(=N)N)NC(=O)[C@H](Cc1ccccc1)NC(=O)[C@H](C)NC(=O)[C@H](CC(N)=O)NC(=O)[C@H](CCCCN)NC(=O)CNC(=O)[C@H](C)NC(=O)[C@H](CCCCN)NC(=O)[C@H](CCC(=O)O)NC(=O)[C@@H](NC(=O)[C@H](CCCCN)NC(=O)[C@H](CCCCN)NC(=O)CN)[C@@H](C)CC)C(C)C)C(C)C)C(=O)NCC(=O)N[C@@H](Cc1ccccc1)C(=O)N[C@@H](C)C(=O)N[C@@H](CCCNC(=N)N)C(=O)N[C@@H](C)C(=O)N[C@@H](CC(C)C)C(=O)NCC(=O)N[C@H](C(=O)N[C@@H](C)C(=O)N[C@H](C(=O)N[C@@H](CC(=O)O)C(=O)O)C(C)C)[C@@H](C)CC | Pseudomonas aeruginosa | – | – | – | MIC | 4 µM (≈ 13.4 µg/mL)
COc1cc2c(cc1O)C(CCc1ccc(Cl)cc1)N(C)CC2 (centres unmarked) | Glutamate NMDA receptor; Grin1/Grin2b (Grin1/Grin2b, Rattus norvegicus, UniProt P35439+Q00960) | binding | – | – | Ki | 20 ± 3 nM
